Measurements collected from several papers.
Several values in a cell are separate wells, animals, samples, runs or records. ± gives the spread as reported.

Compound	target or system	assay	system	setting	how to read	measurement	value
O=C(c1cc(Cc2n[nH]c(=O)c3ccccc23)ccc1F)N1CC(CNC2CC2)C1			Wistar Han rat, male, blood	oral, 60 mg/kg daily, 4 weeks		haematocrit	36.2 ± 4.7%
CC[C@H](C)[C@H](NC(=O)[C@H](CCCN)NC(=O)[C@H](CCCNC(=N)N)NC(=O)[C@@H]1CCCN1C(=O)[C@@H]1CCCN1C(=O)[C@H](CCCNC(=N)N)NC(=O)[C@@H]1CCCN1C(=O)[C@H](CCCNC(=N)N)NC(=O)[C@@H]1CCCN1C(=O)[C@H](CC(C)C)NC(=O)[C@H](Cc1ccc(O)cc1)NC(=O)[C@@H]1CCCN1C(=O)[C@@H]1CCCN1C(=O)[C@H](CCCCN)NC(=O)[C@H](CC(=O)O)NC(=O)[C@@H](N)C(C)C)C(=O)N[C@@H](Cc1ccc(O)cc1)C(=O)N[C@@H](CC(N)=O)C(=O)N[C@@H](CCCN)C(N)=O		competitive ELISA	mouse CD-1, female, plasma	subcutaneous, 4.34 µmol/kg		mean residence time	53 min
Cc1cc(-c2cc([C@@H](C)NC(=O)c3cc(OCCN(C)C)ccc3C)c3ccccc3n2)n(C)n1	Vero E6			125 µM		viability	-1.6% and -2.2%
CCCCCCCCCCCCCCCC(=O)N[C@@H](CCC(=O)NCCOCCOCCC(=O)NCCOCCOCCC(=O)NCCCC[C@H](NC(=O)[C@H](CC(=O)O)NC(=O)[C@H](CC(C)C)NC(=O)[C@H](Cc1ccc(O)cc1)NC(=O)[C@H](CCCCN)NC(=O)[C@H](CO)NC(=O)[C@H](Cc1ccc(O)cc1)NC(=O)[C@H](CC(=O)O)NC(=O)[C@H](CO)NC(=O)[C@@H](NC(=O)[C@H](Cc1ccccc1)NC(=O)[C@@H](NC(=O)CNC(=O)[C@H](CCC(N)=O)NC(=O)[C@@H](CO)NC(=O)[C@@H](N)Cc1c[nH]cn1)[C@@H](C)O)[C@@H](C)O)C(=O)N[C@@H](CCCNC(=N)N)C(=O)N[C@@H](CCCNC(=N)N)C(=O)N[C@@H](C)C(=O)N[C@@H](CCC(N)=O)C(=O)N[C@@H](CC(=O)O)C(=O)N[C@@H](Cc1ccccc1)C(=O)N[C@H](C(=O)N[C@@H](CCC(N)=O)C(=O)N[C@@H](Cc1c[nH]c2ccccc12)C(=O)N[C@@H](CC(C)C)C(=O)N[C@@H](CC(C)C)C(=O)N[C@@H](CC(N)=O)C(=O)N[C@H](C(=O)NCC(=O)NCC(=O)N1CCC[C@H]1C(=O)N[C@@H](CO)C(=O)N[C@@H](CO)C(=O)NCC(=O)N[C@@H](C)C(=O)N1CCC[C@H]1C(=O)N1CCC[C@H]1C(=O)N1CCC[C@H]1C(=O)N[C@@H](CO)C(N)=O)[C@@H](C)O)C(C)C)C(=O)O			rhesus monkey, both sexes, plasma	subcutaneous, 20 µg/kg, multiple doses, day 1		MRT	6.04 ± 1.51 h
CC(C)(CCCC/C=C/CCCCCC(C)(C)C(=O)O)C(=O)O			ICR mice, both sexes	oral, dose not given, 0.083 h		plasma concentration	21500 ng/mL
CC[C@H](C)[C@H](NC(=O)[C@H](CCCCN)NC(=O)CNC(=O)[C@H](CC(C)C)NC(=O)[C@H](Cc1ccccc1)NC(=O)[C@H](CCCCN)NC(=O)[C@H](CO)NC(=O)[C@H](Cc1ccccc1)NC(=O)[C@H](Cc1c[nH]c2ccccc12)NC(=O)[C@H](CCC(N)=O)NC(=O)[C@@H](NC(=O)[C@H](Cc1ccccc1)NC(=O)CCCCCNC(=O)CN1CCN(CC(=O)O)CCN(CC(=O)O)CCN(CC(=O)O)CC1)C(C)C)C(=O)N[C@@H](CCC(=O)O)C(=O)N1CCC[C@H]1C(=O)N[C@@H](CC(=O)O)C(=O)N[C@H](C(=O)N[C@@H](CO)C(=O)N[C@@H](CCC(N)=O)C(=O)N[C@H](C(=O)N[C@@H](CCC(N)=O)C(=O)N[C@@H](CC(=O)O)C(=O)N1CCC[C@H]1C(=O)N[C@@H](CC(N)=O)C(=O)N[C@@H](CC(=O)O)C(=O)N[C@@H](CCC(N)=O)C(=O)N[C@@H](Cc1ccc(O)cc1)C(=O)N[C@@H](CCC(=O)O)C(=O)N1CCC[C@H]1C(=O)N[C@@H](Cc1ccccc1)C(=O)O)C(C)C)C(C)C [copper-64 labelled]		dynamic PET	mouse both sexes, CT26 tumour, checkpoint inhibitor-treated, tumour	intravenous, 100 µCi/mouse, 810 s		SUVmean	3.55 SUV
Cc1ccc(N2CCN(C)[C@H](C)C2)cc1C(=O)N[C@H](C)c1cc(-c2cnn(C)c2)nc2ccccc12	African green monkey cells			31.25 µM		viability	102%
O=C1NC2(CC2)COc2ncc(F)cc2[C@H]2COCCN2c2ccn3ncc1c3n2			Sprague-Dawley rat, male, serum	oral, 2.5 mg/kg/day, 4 weeks daily, end of treatment		aspartate aminotransferase activity	99.7 ± 11.1 U/L
CN1Cc2cc(Cl)ccc2-n2c(nnc2C2CCN(c3cccc([18F])n3)CC2)C1			C57BL/6 mouse male, muscle	intravenous, dose not given, 30 min, added: blocking agent 10 mg/kg		tissue uptake	2.49 ± 0.65 %ID/g
COc1cnc2cccc(N3CCc4c(cc(Cn5ccnc5)cc4-c4cn(C)nc4C(F)(F)F)C3=O)c2c1			BALB/c nude mice, MV4-11 xenograft	intraperitoneal, 50 mg/kg, day 21		body weight	21.7 g and 24.8 g and 21.8 g and 22.8 g
CC(CCC(=O)NCC(=O)O)C1CCC2C3C(O)CC4CC(OC5OC(C(=O)O)C(O)C(O)C5O)CCC4(C)C3CCC12C (stereo not drawn)		item: glucuronide to parent ratio	women, plasma	dose not given	relative to: T/C over T/T	ratio of metabolic ratios	1.96
N=C(N)NCCC[C@H](NC(=O)[C@H](CCCNC(=N)N)NC(=O)[C@H](CCCNC(=N)N)NC(=O)[C@H](CCC(N)=O)NC(=O)[C@H](CCCNC(=N)N)NC(=O)[C@H](CCCNC(=N)N)NC(=O)[C@H](CCCCN)NC(=O)[C@H](CCCCN)NC(=O)[C@H](CCCNC(=N)N)NC(=O)CNC(=O)[C@H](Cc1ccc(O)cc1)NC(=O)[C@H](Cc1ccccc1)NC(=O)[C@H](Cc1ccccc1)NC(=O)[C@H](Cc1ccccc1)NC(=O)OCC1c2ccccc2-c2ccccc21)C(=O)O			C57BL/6 mice	intraperitoneal, 10 mg/kg, 12 h	direction not given	health score	5
O=C(CN1CCN(CC(=O)NCP(=O)([O-])[O-])CCN(CC(=O)NCP(=O)([O-])[O-])CCN(CC(=O)NCP(=O)([O-])[O-])CC1)NCP(=O)([O-])[O-].[Gd+3]			Sprague-Dawley rats, blood	intravenous, 35 µmol/kg, two-compartment model, added: GdDTPA 68 µmol/kg co-injected		clearance	5.4 mL/min/kg
CSCC[C@H](NC(=O)CNC(=O)[C@H](CCCCN)NC(=O)[C@H](CC(C)C)NC(=O)[C@@H]1CCCN1C(=O)[C@H](CO)NC(=O)[C@H](Cc1c[nH]cn1)NC(=O)[C@H](Cc1c[nH]c2ccccc12)NC(=O)[C@H](CCCNC(=N)N)NC(=O)[C@H](CC(C)C)NC(=O)[C@H](CCCNC(=N)N)NC(=O)[C@H](Cc1c[nH]c2ccccc12)NC(=O)[C@H](CS)NC(=O)CCCCCNC(=O)CN1CCN(CC(=O)O)CCN(CC(=O)O)CCN(CC(=O)O)CC1)C(=O)O [copper-64 labelled]		ex vivo biodistribution	BALB/c nude mice, bladder	intravenous, dose not given, 6 h, Huh-7 tumour-bearing		tissue uptake	1.34 %ID/g
CC[C@H](C)[C@H](NC(=O)[C@H](Cc1ccc(O)cc1)NC(=O)[C@@H](NC(=O)[C@H](CCCNC(=N)N)NC(=O)[C@@H](N)CC(=O)O)C(C)C)C(=O)N[C@@H](Cc1c[nH]cn1)C(=O)N1CCC[C@H]1C(=O)O			Beagle dogs, plasma	subcutaneous, 10 mg/kg/day, day 27, median		elimination rate constant	0.03 min⁻¹

A few entries again:
Compound	target or system	assay	system	setting	how to read	measurement	value
CC(CCC(=O)NCC(=O)O)C1CCC2C3C(O)CC4CC(OC5OC(C(=O)O)C(O)C(O)C5O)CCC4(C)C3CCC12C (stereo not drawn)		item: glucuronide to parent ratio	women, plasma	dose not given	relative to: T/C over T/T	ratio of metabolic ratios	1.96
N=C(N)NCCC[C@H](NC(=O)[C@H](CCCNC(=N)N)NC(=O)[C@H](CCCNC(=N)N)NC(=O)[C@H](CCC(N)=O)NC(=O)[C@H](CCCNC(=N)N)NC(=O)[C@H](CCCNC(=N)N)NC(=O)[C@H](CCCCN)NC(=O)[C@H](CCCCN)NC(=O)[C@H](CCCNC(=N)N)NC(=O)CNC(=O)[C@H](Cc1ccc(O)cc1)NC(=O)[C@H](Cc1ccccc1)NC(=O)[C@H](Cc1ccccc1)NC(=O)[C@H](Cc1ccccc1)NC(=O)OCC1c2ccccc2-c2ccccc21)C(=O)O			C57BL/6 mice	intraperitoneal, 10 mg/kg, 12 h	direction not given	health score	5
